Results gathered from unrelated publications.
Each line is one published result; not all experiments were run side by side. ± gives the spread as reported.
SLC47A1: Multidrug and toxin extrusion protein 1 (SLC47A1, Homo sapiens, UniProt Q96FL8)
Sequence of UniProt Q96FL8 (whole entry, looked up): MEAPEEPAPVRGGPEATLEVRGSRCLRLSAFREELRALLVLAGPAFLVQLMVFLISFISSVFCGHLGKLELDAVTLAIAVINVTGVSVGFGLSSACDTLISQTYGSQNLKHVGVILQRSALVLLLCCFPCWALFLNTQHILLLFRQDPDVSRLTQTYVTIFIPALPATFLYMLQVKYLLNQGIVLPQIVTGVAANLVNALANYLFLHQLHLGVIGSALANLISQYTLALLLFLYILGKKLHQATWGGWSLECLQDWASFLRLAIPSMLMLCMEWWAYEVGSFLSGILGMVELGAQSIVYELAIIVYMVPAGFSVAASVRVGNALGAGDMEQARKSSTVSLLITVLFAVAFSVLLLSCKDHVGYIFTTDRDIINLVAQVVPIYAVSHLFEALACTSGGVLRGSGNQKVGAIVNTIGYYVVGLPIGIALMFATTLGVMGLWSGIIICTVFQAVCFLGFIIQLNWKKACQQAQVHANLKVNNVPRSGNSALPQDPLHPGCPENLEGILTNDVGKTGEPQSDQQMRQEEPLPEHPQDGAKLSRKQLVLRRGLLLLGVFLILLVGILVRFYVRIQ
KCNH2: Voltage-gated inwardly rectifying potassium channel KCNH2 (KCNH2, Homo sapiens, UniProt Q12809)
Sequence of UniProt Q12809 (whole entry, looked up): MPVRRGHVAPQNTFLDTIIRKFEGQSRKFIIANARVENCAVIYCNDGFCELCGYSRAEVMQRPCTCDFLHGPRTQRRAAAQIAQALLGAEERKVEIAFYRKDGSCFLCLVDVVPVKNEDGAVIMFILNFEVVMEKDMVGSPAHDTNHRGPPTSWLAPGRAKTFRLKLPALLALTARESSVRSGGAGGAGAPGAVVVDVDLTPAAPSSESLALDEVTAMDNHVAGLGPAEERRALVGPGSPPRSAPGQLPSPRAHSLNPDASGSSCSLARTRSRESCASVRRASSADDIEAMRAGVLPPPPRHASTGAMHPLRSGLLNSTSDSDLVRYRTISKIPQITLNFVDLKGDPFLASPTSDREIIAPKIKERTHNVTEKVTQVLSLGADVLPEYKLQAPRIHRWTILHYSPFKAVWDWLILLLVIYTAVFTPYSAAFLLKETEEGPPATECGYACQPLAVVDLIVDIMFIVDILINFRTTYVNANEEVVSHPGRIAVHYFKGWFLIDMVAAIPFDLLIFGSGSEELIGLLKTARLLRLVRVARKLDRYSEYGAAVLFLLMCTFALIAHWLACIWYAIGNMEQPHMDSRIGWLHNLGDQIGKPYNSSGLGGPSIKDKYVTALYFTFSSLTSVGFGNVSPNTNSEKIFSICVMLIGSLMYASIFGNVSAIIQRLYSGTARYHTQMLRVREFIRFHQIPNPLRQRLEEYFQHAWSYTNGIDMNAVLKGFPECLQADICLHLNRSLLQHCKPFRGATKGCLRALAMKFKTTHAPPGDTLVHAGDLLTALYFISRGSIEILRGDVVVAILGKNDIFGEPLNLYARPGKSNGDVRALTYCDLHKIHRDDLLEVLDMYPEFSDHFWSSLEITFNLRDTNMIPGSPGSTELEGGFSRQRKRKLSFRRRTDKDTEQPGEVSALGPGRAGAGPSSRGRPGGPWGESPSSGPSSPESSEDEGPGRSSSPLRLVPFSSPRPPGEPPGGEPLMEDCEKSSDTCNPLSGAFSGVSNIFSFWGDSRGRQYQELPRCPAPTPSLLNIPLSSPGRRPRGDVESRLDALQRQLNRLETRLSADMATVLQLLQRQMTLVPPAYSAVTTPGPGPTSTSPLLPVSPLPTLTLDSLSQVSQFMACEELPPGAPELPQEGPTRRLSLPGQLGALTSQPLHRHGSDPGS
CYP2D6: Cytochrome P450 2D6 (CYP2D6, Homo sapiens, UniProt P10635)
Sequence of UniProt P10635 (whole entry, looked up): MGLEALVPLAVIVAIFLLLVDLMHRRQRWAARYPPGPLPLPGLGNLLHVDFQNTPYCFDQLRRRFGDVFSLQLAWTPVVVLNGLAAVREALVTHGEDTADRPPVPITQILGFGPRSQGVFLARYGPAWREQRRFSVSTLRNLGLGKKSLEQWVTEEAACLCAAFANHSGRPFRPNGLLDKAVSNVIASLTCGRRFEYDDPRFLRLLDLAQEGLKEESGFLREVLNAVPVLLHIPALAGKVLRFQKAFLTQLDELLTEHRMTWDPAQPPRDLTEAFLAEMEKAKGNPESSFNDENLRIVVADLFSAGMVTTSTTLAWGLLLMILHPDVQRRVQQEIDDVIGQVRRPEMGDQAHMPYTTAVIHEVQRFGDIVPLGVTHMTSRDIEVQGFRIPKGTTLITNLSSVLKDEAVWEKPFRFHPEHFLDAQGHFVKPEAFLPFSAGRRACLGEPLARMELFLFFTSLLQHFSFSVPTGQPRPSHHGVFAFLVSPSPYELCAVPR
Sequence of UniProt P04799 (whole entry, looked up): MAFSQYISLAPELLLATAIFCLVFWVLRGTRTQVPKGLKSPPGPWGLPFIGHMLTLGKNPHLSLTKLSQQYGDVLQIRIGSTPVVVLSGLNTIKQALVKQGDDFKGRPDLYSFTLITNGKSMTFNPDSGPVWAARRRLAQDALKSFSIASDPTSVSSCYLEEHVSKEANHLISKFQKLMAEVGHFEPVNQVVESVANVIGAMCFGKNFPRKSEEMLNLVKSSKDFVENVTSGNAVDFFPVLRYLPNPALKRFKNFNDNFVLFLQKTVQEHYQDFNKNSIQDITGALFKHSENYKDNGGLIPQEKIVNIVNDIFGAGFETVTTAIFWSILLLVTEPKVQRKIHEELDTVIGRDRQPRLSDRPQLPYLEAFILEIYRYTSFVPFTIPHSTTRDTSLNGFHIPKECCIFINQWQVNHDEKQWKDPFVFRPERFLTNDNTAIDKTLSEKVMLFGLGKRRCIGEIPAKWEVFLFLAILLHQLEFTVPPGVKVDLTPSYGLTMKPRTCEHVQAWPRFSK
Sequence of UniProt P0DJ06 (whole entry, looked up): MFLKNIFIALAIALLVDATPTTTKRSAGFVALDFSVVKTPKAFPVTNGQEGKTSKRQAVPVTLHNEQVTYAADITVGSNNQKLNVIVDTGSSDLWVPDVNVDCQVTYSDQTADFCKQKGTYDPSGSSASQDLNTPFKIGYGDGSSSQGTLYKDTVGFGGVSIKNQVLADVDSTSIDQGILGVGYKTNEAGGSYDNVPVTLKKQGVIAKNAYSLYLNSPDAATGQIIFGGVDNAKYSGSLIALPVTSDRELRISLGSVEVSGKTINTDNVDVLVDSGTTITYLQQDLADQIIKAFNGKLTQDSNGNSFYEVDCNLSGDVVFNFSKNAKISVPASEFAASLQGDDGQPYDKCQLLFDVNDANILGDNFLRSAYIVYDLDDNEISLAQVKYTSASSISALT
Sequence of UniProt P46059 (whole entry, looked up): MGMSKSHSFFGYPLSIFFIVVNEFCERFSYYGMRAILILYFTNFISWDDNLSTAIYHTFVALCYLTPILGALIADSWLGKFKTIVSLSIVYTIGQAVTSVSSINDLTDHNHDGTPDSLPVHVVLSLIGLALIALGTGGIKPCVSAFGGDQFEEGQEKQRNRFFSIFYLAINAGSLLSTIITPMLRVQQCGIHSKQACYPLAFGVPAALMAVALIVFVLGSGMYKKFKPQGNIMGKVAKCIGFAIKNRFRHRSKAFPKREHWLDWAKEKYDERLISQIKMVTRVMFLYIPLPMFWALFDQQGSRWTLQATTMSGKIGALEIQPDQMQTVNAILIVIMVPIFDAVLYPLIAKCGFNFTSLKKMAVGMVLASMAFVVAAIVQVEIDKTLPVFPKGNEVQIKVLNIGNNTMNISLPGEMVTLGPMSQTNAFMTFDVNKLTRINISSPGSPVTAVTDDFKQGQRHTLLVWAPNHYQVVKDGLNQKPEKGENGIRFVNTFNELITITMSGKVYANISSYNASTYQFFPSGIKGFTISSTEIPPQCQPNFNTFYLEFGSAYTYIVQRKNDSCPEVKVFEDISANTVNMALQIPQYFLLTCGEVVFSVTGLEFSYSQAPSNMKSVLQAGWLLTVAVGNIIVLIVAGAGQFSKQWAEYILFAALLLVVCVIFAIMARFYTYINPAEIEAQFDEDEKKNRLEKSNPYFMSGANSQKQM
Sequence of UniProt P05177 (whole entry, looked up): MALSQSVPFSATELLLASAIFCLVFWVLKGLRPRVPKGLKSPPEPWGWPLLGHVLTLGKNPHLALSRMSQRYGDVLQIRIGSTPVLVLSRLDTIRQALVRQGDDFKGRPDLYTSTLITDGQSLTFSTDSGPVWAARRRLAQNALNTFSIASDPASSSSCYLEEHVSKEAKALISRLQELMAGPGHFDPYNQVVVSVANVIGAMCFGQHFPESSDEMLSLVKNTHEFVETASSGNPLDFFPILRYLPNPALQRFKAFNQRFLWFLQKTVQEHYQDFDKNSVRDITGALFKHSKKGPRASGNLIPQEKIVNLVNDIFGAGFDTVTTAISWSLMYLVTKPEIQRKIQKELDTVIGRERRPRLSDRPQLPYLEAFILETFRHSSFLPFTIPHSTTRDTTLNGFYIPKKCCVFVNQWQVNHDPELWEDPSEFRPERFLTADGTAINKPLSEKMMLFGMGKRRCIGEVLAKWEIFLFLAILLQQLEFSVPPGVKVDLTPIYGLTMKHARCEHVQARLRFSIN

Compound	target	assay	test system	conditions	how to read	measurement	result
O=c1n(CCCN2CCN(c3cccc(Cl)c3)CC2)nc2ccccn12	bile salt export pump (Macaca fascicularis, UniProt D2CFL3)	inhibitor		1 h		IC50	134 µM
COc1ccc2cc1Oc1ccc(cc1)C[C@H]1c3cc(c(OC)cc3CCN1C)Oc1c(OC)c(OC)cc3c1[C@H](C2)N(C)CC3	SLC47A1	transport activity, inhibitor		10 µM, 10 (unit not given), with: metformin		inhibition	72.8%
COc1cc(N2CC[C@@]3(O)C(=O)c4cc(C)c(C)cc4N=C23)ccn1	KCNH2	patch clamp	CHO	10 µM		hERG inhibition	negative
O=C1CCC(N2C(=O)c3ccccc3C2=O)C(=O)N1 (stereo not drawn)	SLC47A1	transport, inhibitor	transiently transfected cells	100 µM, 10 (unit not given), with: metformin		inhibition	38.9%
Cc1c(COC(=O)[C@@H]2[C@H](/C=C(\Cl)C(F)(F)F)C2(C)C)cccc1-c1ccccc1 (racemic)	human CYP2C9	IVIVE from expressed enzymes	human, liver, in vivo scaled	0.1 µM, age-specific		enzyme contribution to CLint	19.2%
CCCCc1nc(Cl)c(CO)n1Cc1ccc(-c2ccccc2-c2nn[nH]n2)cc1	SLC47A1	transport, inhibitor	transiently transfected cells	100 µM, 10 (unit not given), with: metformin		inhibition	28.6%
COc1ccc(CCC2CCCC(CCc3ccc(OC)cc3)N2C[C@@H](O)CO)cc1.Cl (stereo in doubt)	KCNH2	potassium current, inhibitor	HEK293			Hill coefficient	1.1
Cc1oncc1C(=O)Nc1ccc(C(F)(F)F)cc1	SLC47A1	transport, inhibitor	transiently transfected cells	100 µM, 10 (unit not given), with: metformin		inhibition	78.3%
CCCC[C@H]1C(=O)N(C)[C@@H](CCCC)C(=O)N[C@@H](CCCCNC(=O)CN2CCN(CC(=O)O)CCN(CC(=O)O)CC2)C(=O)N[C@H](C(=O)NCC(N)=O)CSCC(=O)N[C@@H](Cc2ccc(O)cc2)C(=O)N(C)[C@@H](C)C(=O)N[C@@H](CC(N)=O)C(=O)N2CCC[C@H]2C(=O)N[C@@H](Cc2c[nH]cn2)C(=O)N[C@@H](CCC(=O)O)C(=O)N2C[C@H](O)C[C@H]2C(=O)N[C@@H](Cc2c[nH]c3ccccc23)C(=O)N[C@@H](CO)C(=O)N[C@@H](Cc2cn(CC(=O)O)c3ccccc23)C(=O)N1C [gallium-68 labelled]	CD274 (Homo sapiens, UniProt Q9NZQ7)	PET	humanised NOG-EXL mice, U-87 MG xenograft	day D1 after antibody, with: anti-PD-L1 antibody 10 mg/kg		tumour uptake	0.8 %ID/g
CC1(C)C(/C=C(\Cl)C(F)(F)F)C1C(=O)OC(C#N)c1cccc(Oc2ccccc2)c1 (stereo not drawn)	human CYP2C9	IVIVE from expressed enzymes	human, liver, in vivo scaled	age-specific		enzyme contribution to CLint	0.46%
Cn1nccc1[C@]1(CNC(=O)c2ccc(F)c(F)c2-c2ccc(C(F)(F)F)cc2)NC(=O)NC1=O	CYP2D6		human liver microsomes	with: dextromethorphan	no inhibition up to value	IC50	> 20 µM
CS(=O)(=O)Nc1ncn(-c2cc(F)c(COc3ccc(OS(=O)(=O)F)cc3)c(F)c2)n1	CYP2D6					IC50	> 50 µM
Nc1ccc2c(c1)CN1C(=O)c3ccccc3C1=N2	Cytochrome P450 1A2 (Cyp1a2, Rattus norvegicus, UniProt P04799)	substrate	recombinant rat CYP1A2 microsomes	10 µM, 120 min, with: NADPH		metabolised fraction	31%
CC[C@H](C)[C@H](NC(=O)[C@@H](N)CC(N)=O)C(=O)N1CCC[C@H]1C(=O)N1CCC[C@H]1C(=O)N[C@@H](CC(C)C)C(=O)N[C@H](C(=O)N[C@@H](CCC(N)=O)C(=O)N[C@H](C(=O)N1CCC[C@H]1C(=O)N[C@H](C(=O)N[C@H](C(=O)N[C@H](C(=O)N1CCC[C@H]1C(=O)N1CCC[C@H]1C(=O)N[C@@H](Cc1ccccc1)C(=O)N[C@@H](CC(C)C)C(=O)N[C@@H](CCC(N)=O)C(=O)N1CCC[C@H]1C(=O)N[C@@H](CCC(=O)O)C(=O)O)C(C)C)C(C)C)C(C)C)[C@@H](C)O)[C@@H](C)O	SLC15A1 (Homo sapiens, UniProt P46059)		HEK293 transfected with SLC15A1	10 µM, 5 min, 37 °C	baseline: mock-transfected cells	uptake increase	54.5 ± 14.6%
CCC[S+]([O-])c1ccc2[nH]c(NC(=O)OC)nc2c1 (stereo not drawn)	Cytochrome P450 1A2 (CYP1A2, Homo sapiens, UniProt P05177)	inhibitor	human liver microsomes	10 µM, pH 7.4, with: phenacetin		inhibition	22%
CC(C)CC(=O)OC[C@H]1O[C@@](C#N)(c2ccc3c(N)ncnn23)[C@H](O)[C@@H]1O	ABCB1 (Homo sapiens, UniProt P08183)		Caco-2	9 µM, 2 h		Papp A to B	0.187 ×10⁻⁶ cm/s
COc1cc2c(c(OC)c1OC)-c1ccc(OC)c(=O)cc1[C@@H](NC(C)=O)CC2	SLC47A1	transport, inhibitor	transiently transfected cells	100 µM, 10 (unit not given), with: metformin		inhibition	33.3%
C[C@H](NC(=O)[C@H](Cc1cnc[nH]1)NC(=O)[C@H](CO)NC(=O)[C@@H](N)CC(=O)O)C(=O)N[C@@H](CCCCN)C(=O)N[C@@H](CCCNC(=N)N)C(=O)N[C@@H](Cc1cnc[nH]1)C(=O)N[C@@H](Cc1cnc[nH]1)C(=O)NCC(=O)N[C@@H](Cc1ccc(O)cc1)C(=O)N[C@@H](CCCCN)C(=O)N[C@@H](CCCNC(=N)N)C(=O)N[C@@H](CCCCN)C(=O)N[C@@H](Cc1ccccc1)C(=O)N[C@@H](Cc1cnc[nH]1)C(=O)N[C@@H](CCC(=O)O)C(=O)N[C@@H](CCCCN)C(=O)N[C@@H](Cc1cnc[nH]1)C(=O)N[C@@H](Cc1cnc[nH]1)C(=O)N[C@@H](CO)C(=O)N[C@@H](Cc1cnc[nH]1)C(=O)N[C@@H](CCCNC(=N)N)C(=O)NCC(=O)N[C@@H](Cc1ccc(O)cc1)C(=O)O	Secreted aspartic protease 2 (SAP2, Candida albicans, UniProt P0DJ06)	proteolytic degradation, gel densitometry		150 µg/mL, 2 h, pH 7.4, with: SAP2 0.1 µg/mL		intact peptide remaining	50.4%
CCOC(=O)c1c(CSc2ccccc2)n(C)c2cc(Br)c(O)c(CN(C)C)c12	SLC47A1	transport, inhibitor	transiently transfected cells	100 µM, 10 (unit not given), with: metformin		inhibition	116%
O=C1Cc2cc(CCN3CCN(c4nsc5ccccc45)CC3)c(Cl)cc2N1	CYP2D6	enzyme activity, inhibitor	human liver microsomes	10 µM, pH 7.4, with: dextromethorphan		inhibition	12%
CCN(CCO)CCCC(C)Nc1ccnc2cc(Cl)ccc12 (stereo not drawn)	SLC47A1	transport, inhibitor	transiently transfected cells	100 µM, 10 (unit not given), with: metformin		inhibition	108%
CC1(C)C(C=C(Cl)Cl)C1C(=O)OC(C#N)c1ccc(F)c(Oc2ccccc2)c1 (stereo not drawn)	human CYP2C9	IVIVE from expressed enzymes	human, liver, in vivo scaled	0.1 µM, age-specific		enzyme contribution to CLint	1.99%
CCS(=O)(=O)N1CC(CC#N)(n2cc(-c3ncnc4[nH]ccc34)cn2)C1	SLC47A1	transport, inhibitor		50 µM, with: metformin		inhibition	49.1%
O=C(Nc1cccnn1)N1CCC(=Cc2cccc(Oc3ccc(C(F)(F)F)cn3)c2)CC1	KCNH2	radioligand binding		10 µM, human channel, with: [3H]astemizole		inhibition of binding	70%

For quick reference, copied from above:
Compound	target	assay	test system	conditions	how to read	measurement	result
Cn1nccc1[C@]1(CNC(=O)c2ccc(F)c(F)c2-c2ccc(C(F)(F)F)cc2)NC(=O)NC1=O	CYP2D6		human liver microsomes	with: dextromethorphan	no inhibition up to value	IC50	> 20 µM
CCCCc1nc(Cl)c(CO)n1Cc1ccc(-c2ccccc2-c2nn[nH]n2)cc1	SLC47A1	transport, inhibitor	transiently transfected cells	100 µM, 10 (unit not given), with: metformin		inhibition	28.6%
CCN(CCO)CCCC(C)Nc1ccnc2cc(Cl)ccc12 (stereo not drawn)	SLC47A1	transport, inhibitor	transiently transfected cells	100 µM, 10 (unit not given), with: metformin		inhibition	108%
